# Experimental data gathered from unrelated publications.
# Each line is one published result; not all experiments were run side by side.
# ORM1 F1/S variants: Alpha-1-acid glycoprotein 1, F1/S variants (ORM1, Homo sapiens, UniProt P02763)
# DRD2: D(2) dopamine receptor (DRD2, Homo sapiens, UniProt P14416)
SMILES,tested on,assay,test system,setting,scale,endpoint,result
Clc1ccc(COC(Cn2ccnc2)c2ccc(Cl)cc2Cl)c(Cl)c1 (stereo not drawn),ORM1 F1/S variants,"competitive inhibitor, ultrafiltration",,"15 min, 37 °C, together with: [3H]tamsulosin",,Ki,9.95 µM
CCCCCCCCCCCCCCCCCCc1ccc(O)cc1,"Albumin (ALB, Homo sapiens, UniProt P02768)",modified Stern–Volmer,PBS,27 °C,,Kb,23700 µM
O=C1CN(c2nc(=O)c3cc(C(F)(F)F)cc([N+](=O)[O-])c3s2)CCN1C1CCCC1,"CYP2C19 (Homo sapiens, UniProt P33261)",,,"60 (unit not given), pH 7.4",,IC50,5.52 µM
CN1CCN(c2ccc(Nc3ncc4cc(C#N)c(=O)n(C5CCCC5)c4n3)cc2)CC1,"Cyclin-dependent kinase 6, with cyclin D3 (CDK6, Homo sapiens, UniProt Q00534)",,,,,IC50,0.0346 µM
Cn1cc(-c2ccc(-c3cncc(Cl)c3N3CCC4(CCNC4=O)CC3)cc2)cn1,COLO 205,"gene expression, microarray, measured: SULF1 mRNA",,"concentration not given, 6 h",reference: untreated cells,log2 fold change,1.21
Cc1[nH]c(C)c(S(=O)(=O)Nc2ccc(C(C)(C)O)c(Cl)c2)c1C(=O)N1CCC(F)(F)C1,DRD2,,,,,IC50,> 100 µM
N#C[C@@]12C[C@@H]1[C@@H](n1cnc3c(NC4CCCC4)nc(I)nc31)[C@H](O)[C@@H]2O,"Htr2c (Mus musculus, UniProt P34968)","antagonist, Gq dissociation BRET",,mouse receptor,,Kb,0.0244 µM
CC(=O)c1c(C)c2cnc(Nc3ccc(N4CCN(CCCOc5ccc(CN6CCC(c7ccc8c(c7)CN(C7CCC(=O)NC7=O)C8=O)CC6)cc5)CC4)cn3)nc2n(C2CCCC2)c1=O (stereo not drawn),"CDK6 (Homo sapiens, UniProt Q00534)","protein degradation, degrader, immunoblot",Jurkat,4 h,,DC50,0.002 µM
Cc1[nH]c(C)c(S(=O)(=O)Nc2ccc(C(F)(F)F)c(Cl)c2)c1C(=O)N1C2CCC1CC2,DRD2,,,,,IC50,> 100 µM
CC[C@H]1OC(=O)[C@H](C)[C@@H](O[C@H]2C[C@@](C)(OC)[C@@H](O)[C@H](C)O2)[C@H](C)[C@@H](O[C@@H]2O[C@H](C)C[C@H](N(C)C)[C@H]2O)[C@](C)(O)C[C@@H](C)C(=O)[C@H](C)[C@@H](O)[C@]1(C)O,ORM1 F1/S variants,"competitive inhibitor, ultrafiltration",,"15 min, 37 °C, together with: [3H]tamsulosin",,Ki,3.93 µM
Cc1ccc(NS(=O)(=O)c2c(C)[nH]c(C)c2C(=O)N2CCC(F)(F)C2)nc1Br,DRD2,,,,,IC50,> 100 µM
CCn1c(-c2nc3ccc(C(=O)N4CCCC(N)C4)cc3n2C)cc2ccccc21 (stereo not drawn),"ADORA2A (Homo sapiens, UniProt P29274)","agonist, TR-FRET",,,,EC50,> 31.6 µM

# Some of these lines once more:
SMILES,tested on,assay,test system,setting,scale,endpoint,result
CC(=O)c1c(C)c2cnc(Nc3ccc(N4CCN(CCCOc5ccc(CN6CCC(c7ccc8c(c7)CN(C7CCC(=O)NC7=O)C8=O)CC6)cc5)CC4)cn3)nc2n(C2CCCC2)c1=O (stereo not drawn),"CDK6 (Homo sapiens, UniProt Q00534)","protein degradation, degrader, immunoblot",Jurkat,4 h,,DC50,0.002 µM
